# Measured values collected from several papers.
# Lines come from different studies, so protocols differ. Numbers after ± are the reported error.
# Sequence of UniProt P27338 (whole entry, looked up): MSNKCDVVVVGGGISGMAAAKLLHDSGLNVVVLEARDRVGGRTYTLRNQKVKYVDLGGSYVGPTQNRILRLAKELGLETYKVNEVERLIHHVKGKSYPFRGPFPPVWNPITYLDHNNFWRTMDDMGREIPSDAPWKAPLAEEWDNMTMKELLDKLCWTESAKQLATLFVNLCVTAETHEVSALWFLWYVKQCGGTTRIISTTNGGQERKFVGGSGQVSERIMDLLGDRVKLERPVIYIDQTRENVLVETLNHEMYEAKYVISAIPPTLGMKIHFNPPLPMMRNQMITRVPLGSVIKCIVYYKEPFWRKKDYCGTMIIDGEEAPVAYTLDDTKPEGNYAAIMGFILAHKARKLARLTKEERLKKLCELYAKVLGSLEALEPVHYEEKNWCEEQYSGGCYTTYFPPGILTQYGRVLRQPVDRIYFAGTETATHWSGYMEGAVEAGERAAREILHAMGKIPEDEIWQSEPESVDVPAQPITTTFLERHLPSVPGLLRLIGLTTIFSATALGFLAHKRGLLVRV
# Sequence of UniProt O94925 (whole entry, looked up): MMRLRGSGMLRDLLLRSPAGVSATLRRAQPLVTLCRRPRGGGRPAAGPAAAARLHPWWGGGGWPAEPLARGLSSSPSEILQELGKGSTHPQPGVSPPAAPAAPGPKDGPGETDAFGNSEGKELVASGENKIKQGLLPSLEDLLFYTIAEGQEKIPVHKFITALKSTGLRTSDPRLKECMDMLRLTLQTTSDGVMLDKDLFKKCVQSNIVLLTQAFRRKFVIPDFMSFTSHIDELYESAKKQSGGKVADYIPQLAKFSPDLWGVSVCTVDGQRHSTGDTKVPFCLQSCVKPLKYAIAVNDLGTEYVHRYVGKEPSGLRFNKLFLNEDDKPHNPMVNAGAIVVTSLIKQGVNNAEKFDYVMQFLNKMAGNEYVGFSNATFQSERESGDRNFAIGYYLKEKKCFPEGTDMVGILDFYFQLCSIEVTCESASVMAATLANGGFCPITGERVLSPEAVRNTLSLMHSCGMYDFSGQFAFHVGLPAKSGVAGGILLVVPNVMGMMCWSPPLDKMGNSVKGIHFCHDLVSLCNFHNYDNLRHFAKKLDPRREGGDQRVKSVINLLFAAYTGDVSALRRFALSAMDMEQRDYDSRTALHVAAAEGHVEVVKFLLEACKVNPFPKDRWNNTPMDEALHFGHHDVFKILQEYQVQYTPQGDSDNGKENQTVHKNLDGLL
# Sequence of UniProt P30803 (whole entry, looked up): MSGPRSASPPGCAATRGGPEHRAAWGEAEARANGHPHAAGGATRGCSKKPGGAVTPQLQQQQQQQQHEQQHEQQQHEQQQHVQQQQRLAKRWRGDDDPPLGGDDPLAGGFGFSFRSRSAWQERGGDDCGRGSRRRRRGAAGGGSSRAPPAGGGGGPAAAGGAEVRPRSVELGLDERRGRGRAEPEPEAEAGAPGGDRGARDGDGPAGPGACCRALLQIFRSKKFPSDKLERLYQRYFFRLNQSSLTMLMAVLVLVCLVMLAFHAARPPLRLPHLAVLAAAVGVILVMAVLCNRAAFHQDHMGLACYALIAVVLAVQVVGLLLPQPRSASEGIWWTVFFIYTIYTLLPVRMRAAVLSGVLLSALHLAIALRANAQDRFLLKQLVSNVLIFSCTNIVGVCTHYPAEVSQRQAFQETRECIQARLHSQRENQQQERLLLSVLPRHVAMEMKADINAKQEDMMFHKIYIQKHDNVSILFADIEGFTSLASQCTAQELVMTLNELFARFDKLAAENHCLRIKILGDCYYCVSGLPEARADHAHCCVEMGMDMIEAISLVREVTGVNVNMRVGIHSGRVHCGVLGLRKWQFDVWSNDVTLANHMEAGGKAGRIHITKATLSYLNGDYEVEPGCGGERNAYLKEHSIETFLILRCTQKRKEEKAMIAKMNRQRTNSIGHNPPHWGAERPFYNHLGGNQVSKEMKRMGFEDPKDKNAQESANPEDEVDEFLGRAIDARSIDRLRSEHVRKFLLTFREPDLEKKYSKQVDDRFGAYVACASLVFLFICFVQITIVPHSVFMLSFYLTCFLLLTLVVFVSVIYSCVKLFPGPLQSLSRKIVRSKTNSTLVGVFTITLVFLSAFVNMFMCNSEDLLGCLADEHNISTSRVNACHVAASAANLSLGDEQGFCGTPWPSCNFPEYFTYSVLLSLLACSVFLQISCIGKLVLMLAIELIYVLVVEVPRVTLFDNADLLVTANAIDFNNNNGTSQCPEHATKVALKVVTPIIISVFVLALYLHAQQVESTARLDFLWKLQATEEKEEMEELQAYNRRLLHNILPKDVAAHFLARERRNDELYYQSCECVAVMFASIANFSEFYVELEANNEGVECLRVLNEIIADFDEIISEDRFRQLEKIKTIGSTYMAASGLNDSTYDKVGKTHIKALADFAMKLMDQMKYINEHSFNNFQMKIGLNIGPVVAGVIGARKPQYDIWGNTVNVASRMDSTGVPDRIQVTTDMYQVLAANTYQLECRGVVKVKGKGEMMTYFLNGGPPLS
# Sequence of UniProt P21397 (whole entry, looked up): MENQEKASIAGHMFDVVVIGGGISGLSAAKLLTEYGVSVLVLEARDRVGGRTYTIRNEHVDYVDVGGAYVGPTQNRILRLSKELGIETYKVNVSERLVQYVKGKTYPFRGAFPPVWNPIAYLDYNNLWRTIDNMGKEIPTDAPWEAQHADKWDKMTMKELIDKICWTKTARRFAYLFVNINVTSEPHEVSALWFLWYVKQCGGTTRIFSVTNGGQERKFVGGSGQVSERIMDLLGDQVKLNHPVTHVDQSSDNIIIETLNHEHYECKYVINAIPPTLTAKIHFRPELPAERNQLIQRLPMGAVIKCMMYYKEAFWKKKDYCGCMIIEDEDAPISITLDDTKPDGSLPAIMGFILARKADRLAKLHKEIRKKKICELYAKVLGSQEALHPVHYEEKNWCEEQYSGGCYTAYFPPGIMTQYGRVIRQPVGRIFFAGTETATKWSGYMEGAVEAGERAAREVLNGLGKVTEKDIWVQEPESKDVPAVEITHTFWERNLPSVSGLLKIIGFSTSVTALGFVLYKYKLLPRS
SMILES,target or system,assay,test system,conditions,endpoint,value
N[C@H](CC[As](O)O)C(=O)O,"GLS (Homo sapiens, UniProt O94925)",,,,Kd,40 µM
NC1CC1c1ccc(NC(=O)Cc2ccccc2)cc1 (centres unmarked),"MAOB (Homo sapiens, UniProt P27338)","enzyme activity, inhibitor, HRP-coupled",,"100 µM, together with: benzylamine substrate",inhibition,33%
CC[C@H](C)[C@H](NC(=O)[C@H](C)NC(=O)[C@H](CCC(=O)O)NC(=O)[C@H](Cc1c[nH]cn1)NC(=O)[C@@H](NC(=O)[C@H](CCCCN)NC(=O)[C@H](CCC(N)=O)NC(=O)[C@H](Cc1ccccc1)NC(=O)[C@@H](NC(=O)[C@H](CCCCN)NC(=O)[C@H](CCCCN)NC(=O)[C@H](CC(C)C)NC(=O)[C@H](C)NC(=O)[C@H](CC(N)=O)NC(=O)[C@@H](N)CC(C)C)C(C)C)[C@@H](C)CC)C(=O)N[C@@H](CCCCN)C(N)=O,Gram-positive and Gram-negative bacteria,,,,geometric mean MIC,6.73 µM
CNc1ccccc1C(=O)O[C@H]1[C@@H](O)[C@H](n2cnc3c(N)ncnc32)O[C@@H]1COP(=O)(O)OP(=O)(O)O,"ADCY5 (Canis lupus, UniProt P30803)","adenylyl cyclase activity, inhibitor",Sf9 membranes,together with: 5 mM MnCl2 100 µM forskolin,Ki,0.79 ± 0.18 µM
CC[C@H](C)[C@H](NC(=O)[C@H](CCCCN)NC(=O)[C@H](CCC(N)=O)NC(=O)[C@H](Cc1ccccc1)NC(=O)[C@@H](NC(=O)[C@H](CCCCN)NC(=O)[C@H](CCCCN)NC(=O)[C@H](CC(C)C)NC(=O)[C@H](C)NC(=O)[C@H](CC(N)=O)NC(=O)[C@@H](N)CC(C)C)C(C)C)C(=O)N[C@@H](Cc1c[nH]cn1)C(N)=O,Escherichia coli,"membrane integrity, flow cytometry",CCARM 1238,"1 x MIC, 1 h",PI-positive cells,71%
NC1CC1c1ccc(NC(=O)Cc2cccc3ccccc23)cc1 (centres unmarked),"MAOA (Homo sapiens, UniProt P21397)","enzyme activity, inhibitor, HRP-coupled",,"100 µM, together with: kynuramine substrate",inhibition,98%
CC[C@H](C)[C@H](NC(=O)[C@H](CC(C)C)NC(=O)[C@H](CCCCN)NC(=O)[C@@H](NC(=O)[C@H](C)NC(=O)[C@H](CCC(=O)O)NC(=O)[C@H](Cc1c[nH]cn1)NC(=O)[C@@H](NC(=O)[C@H](CCCCN)NC(=O)[C@H](CCC(N)=O)NC(=O)[C@H](Cc1ccccc1)NC(=O)[C@@H](NC(=O)[C@H](CCCCN)NC(=O)[C@H](CCCCN)NC(=O)[C@H](CC(C)C)NC(=O)[C@H](C)NC(=O)[C@H](CC(N)=O)NC(=O)[C@@H](N)CC(C)C)C(C)C)[C@@H](C)CC)[C@@H](C)CC)C(N)=O,Gram-positive and Gram-negative bacteria,,,,geometric mean MIC,4.36 µM
CSCC[C@@H]1NC(=O)[C@@H](Cc2ccccc2)NC(=O)[C@H](CC(=O)O)NC(=O)CNC(=O)[C@H](CCCNC(=N)N)NC1=O,A549,,,"48 h, 10% FBS",IC50,> 10 µM

# Some of these lines once more:
SMILES,target or system,assay,test system,conditions,endpoint,value
CC[C@H](C)[C@H](NC(=O)[C@H](C)NC(=O)[C@H](CCC(=O)O)NC(=O)[C@H](Cc1c[nH]cn1)NC(=O)[C@@H](NC(=O)[C@H](CCCCN)NC(=O)[C@H](CCC(N)=O)NC(=O)[C@H](Cc1ccccc1)NC(=O)[C@@H](NC(=O)[C@H](CCCCN)NC(=O)[C@H](CCCCN)NC(=O)[C@H](CC(C)C)NC(=O)[C@H](C)NC(=O)[C@H](CC(N)=O)NC(=O)[C@@H](N)CC(C)C)C(C)C)[C@@H](C)CC)C(=O)N[C@@H](CCCCN)C(N)=O,Gram-positive and Gram-negative bacteria,,,,geometric mean MIC,6.73 µM
